Experimental data gathered from unrelated publications.
Protocols differ between the studies behind these lines. Numbers after ± are the reported error.

| SMILES | cell line | assay | setting | how to read | measurement | result |
| --- | --- | --- | --- | --- | --- | --- |
| COc1cc(CNC(=O)C[C@H](C)CCC=C(C)C)ccc1OCc1cn(-c2ccc(Br)cc2)nn1 | M14 melanoma cells | SRB | 10 µM, 48 h | – | growth percent | 97.2% |
| COc1cccc2c(NCc3ccccc3)nc(Nc3cccc(Cl)c3)nc12 | SW-403 | cell growth or viability | 24 h | – | GI50 | 12 µM |
| Cc1c2ccnc(C(=O)N[C@H](C)CN(C)C)c2cc2c3cc(OCCCN4CCN(C)CC4)ccc3n(C)c12 | C9orf72 ALS iPSCs | qRT-PCR | 50 nM, added: hnRNP H siRNA | – | C9orf72 intron reduction | 29 ± 6% |
| COc1cccc(CNc2nc(NCc3ccccc3)c3ccccc3n2)c1 | SW-403 | cell growth or viability | 24 h | – | GI50 | 4.7 µM |
| CC1=CCC23OC2(C)CCC2C(CN(C)C)C(=O)OC2C13.Cl (stereo not drawn) | C6 rat glioma cells | – | 0.2 mg/mL, clonogenic | reference: control | proliferation | 10.3 ± 2.64% |
| C[C@@H]1NC(=O)[C@H](CCC(=O)O)NC(=O)CNC(=O)[C@H](CC(=O)O)NC(=O)CNC(=O)[C@H](CCCCNC(=O)CCCCCNC(=O)[C@H](CS)NC(=O)CCCCCNC(=O)CN2CCN(CC(=O)O)CCN(CC(=O)O)CCN(CC(=O)O)CC2)NC(=O)[C@@H](Cc2ccc(O)cc2)NC1=O [gallium-68 labelled] | CL1-5 | – | 5 to 90 min, 37 °C | reference: added radioactivity | cellular uptake | < 1% |
| CC[C@H](C)[C@@H]1NC(=O)[C@H](Cc2cn(CCc3c(C)[nH]c4cc(Cl)cc(Cl)c34)nn2)NC(=O)[C@@H](CC(N)=O)NC(=O)[C@H](CCCNC(=N)N)NC(=O)[C@H](Cc2ccccc2)NC(=O)[C@@H](CC(C)C)NC(=O)[C@H](C)NC(=O)c2cc3cc(c2)C(=O)NC[C@@H](C(=O)N[C@@H](CCCCN)C(N)=O)NC(=O)[C@H](CCCNC(=N)N)NC(=O)[C@H](CCCNC(=N)N)NC(=O)[C@H](CCCNC(=N)N)NC(=O)[C@H](CCCNC(=N)N)NC(=O)[C@H](Cc2ccc4ccccc4c2)NC(=O)[C@H](Cc2ccccc2)NC(=O)[C@H](CCCCNC3=O)NC(=O)[C@H](CC(=O)O)NC1=O | H1299 | immunoblot | concentration not given, 12 h | – | MEK protein level | no effect |
| CC(C)c1cccc(C(C)C)c1-n1ccn(-c2c(C(C)C)cccc2C(C)C)c1=[Se].[Cl][Ag] | LoVo-OXP colon cancer cells | MTT | – | reference: LoVo-OXP over LoVo IC50 | resistance factor | 1.2 |
| CCCCCCCCCCCCCC(=O)N1CCC[C@H]1C(=O)N[C@@H](CO)C(=O)N[C@@H](CCC(N)=O)C(=O)N[C@@H](CO)C(=O)N[C@@H](CCCCNC(=O)c1ccc(Br)cc1)C(=O)N[C@@H](CO)C(=O)N[C@@H](CCCCNC(=O)c1ccc(Br)cc1)C(=O)N[C@@H](C)C(=O)O | AsPC-1 | annexin V/PI | 50 µM, 48 h | – | apoptotic cells | 47% |
| Cc1ccc2oc(=O)c(-c3nc4cnccc4[nH]3)cc2c1 | endometrial stem cells | cell proliferation | – | reference: endometrial stem cells over HeLa | EC50 ratio | ~70 fold |
| C[N+]1(CC(=O)OC2CCCCCCCCCCC2)CCCCC1 | LNCaP | cell viability, CellTiter Blue | 96 h | – | ED90 | 20.4 µM |
| Cc1c(Cc2cc(F)cc(OC(C)(C)C(=O)O)c2)c2ccc(C(=O)N[C@@H](C)c3cc(F)cc(C(C)(C)C)c3)cc2n1CC1CCC1 | human adipocytes, type 2 diabetic donor | – | concentration not given, 24 h | reference: DMSO | adiponectin secretion increase | 30% |
| CC(C)(C)c1nc(-c2cccc(NS(=O)(=O)c3c(F)cccc3F)c2F)c(-c2ccnc(N)n2)s1.Cc1[nH]c2ccccc2c1CCNCc1ccc(/C=C/C(=O)NO)cc1 | SK-MEL-28 | flow cytometry | concentration not given, 48 h, concentration about IC50 | – | cells in G2/M phase | 1.39% |
| Cc1ccc(C(C)C)c(OCc2ccc(C(=O)N/N=C/c3cccc(O)c3O)cc2)c1 | HCC4017 | qRT-PCR, item: ANGPTL4 | concentration not given, 24 h | – | mRNA level | increased |
| CCCCN1C(=O)c2cccc3c(NCCCCCCN4CCOCC4)ccc(c23)C1=O | BHK-21 | lysosome colocalization, confocal microscopy | 0.2 µM, added: LysoTracker Deep Red 0.3 µM | – | Pearson correlation coefficient | 0.88 ± 0.02 |
| Cc1[nH]nc2c1N=C(c1ccccc1Cl)c1cnc(N3CCOCC3)cc1N2 | HCC1806 | Western blot | concentration not given, 18 h, added: EGF 100 ng/mL | – | EGFR phosphorylation | decreased |
| CC(=O)C=C(C)[O][Pd][c]1ccccc1C(=O)N=P12CN3CN(CN(C3)C1)C2 | human PBMC and Jurkat | cytotoxicity, MTT | – | reference: PBMC over Jurkat | selectivity ratio | 11 |
| COc1cc(CNC(=O)C[C@H](C)CCC=C(C)C)ccc1OCc1cn(-c2cccc([N+](=O)[O-])c2)nn1 | M14 melanoma cells | SRB | 10 µM, 48 h | – | growth percent | 82.5% |
| Cc1nn(-c2ccc(S(=O)(=O)N[C@H](CO)CC(C)C)cc2)c2nn3nnnc3nc12 | HT-29 | PI/Hoechst staining | 1 µM, 24 h | – | apoptotic cells | 25.5 ± 2.12% |
| COc1cc(CNC(=O)C[C@H](C)CCC=C(C)C)ccc1OCc1cn(-c2ccccc2Cl)nn1 | OVCAR-5 ovarian cancer cells | SRB | 10 µM, 48 h | – | growth percent | 93.1% |
| C=CC1CN(C(=O)NCC=CCSCC=CCNC(=O)N2CC(C=C)OC2=S)C(=S)O1 (stereo not drawn) | WB-F344 rat liver | hepatocyte damage | 10 µM, added: D-galactosamine | – | inhibition | 70% |

| SMILES | cell line | assay | setting | how to read | measurement | result |
| --- | --- | --- | --- | --- | --- | --- |
| Cc1ccc(C(C)C)cc1.O=C(N=P(c1ccccc1)(c1ccccc1)c1ccccc1)c1ccccn1.[Cl-].[Cl][Ru+] | HCC1806 | cell migration, wound-healing scratch | IC20, 24 h | – | inhibition | 68.9% |
| CCCC[C@H](NC(=O)[C@H](Cc1ccccc1)NC(=O)[C@H](Cc1c[nH]cn1)NC(=O)CCNC(=O)[C@@H](NC(=O)[C@H](C)NC(=O)[C@H](Cc1c[nH]c2ccccc12)NC(=O)[C@H](CCC(N)=O)NC(=O)[C@H](N)Cc1ccc(O)cc1)C(C)C)C(N)=O | NCI-H1299 | H2DCF fluorescence | 0.1 µM | – | ROS generation | increased |
| COc1cc(CNC(=O)C[C@H](C)CCC=C(C)C)ccc1OCc1cn(-c2ccc(Cl)c(Cl)c2)nn1 | SNB-19 CNS cancer cells | SRB | 10 µM, 48 h | – | growth percent | 81.3% |
| CCC(=O)N(C)c1ccc(Cl)c(Cl)c1 | DBA/1 mouse splenocytes | – | 50, 100, 200 µM, 48 h, added: anti-CD3/CD28 | – | live CD3+ T cells | no effect |
| COc1cc(/C=C/C(=O)NCCCCCCNC2=C3C[C@@H](C)C[C@H](OC)[C@H](O)[C@@H](C)/C=C(\C)[C@H](OC(N)=O)[C@@H](OC)/C=C\C=C(/C)C(=O)NC(=CC2=O)C3=O)ccc1O | MDA-MB-231 cells | Hsp90 inhibitor, Western blot | 0.5 µM | – | Hsp70 protein level | increased |
| CC(=O)OC[C@H]1O[C@@H](Sc2sc(C(=O)c3ccc(C)cc3)c(N)c2-c2nc3ccccc3s2)[C@H](OC(C)=O)[C@@H](OC(C)=O)[C@H]1OC(C)=O | SF-268 | SRB | 10 µM, 48 h | reference: untreated | growth | 86% |
| O=Cc1c(O)ccc2ccccc12 | HUVEC | RNA sequencing, item: RASGRF2 | 75 µM, 24 h | reference: DMSO | log2 fold change | 2.52 |
| CC1=CC(C)=[N+]2C1=C(CCCC(=O)NCCCCCC(=O)NCCCC[C@H](NC(=O)N[C@@H](CCC(=O)O)C(=O)O)C(=O)O)c1c(C)cc(C)n1[B-]2(F)[18F] (stereo partly drawn) | LNCaP | PSMA-mediated internalization | 30 min, added: 2-PMPA blocking | – | internalized fraction | 2.17% |
| CC[C@H](C)[C@H](NC(=O)[C@H](CCSC)NC(=O)[C@H](N)CC(C)C)C(=O)O | RAW264.7 cells | – | 1 µM, 72 h | reference: vehicle | cell proliferation | decreased |
| COc1cc(CNC(=O)C[C@H](C)CCC=C(C)C)ccc1OCc1cn(-c2ccc(C#N)cc2)nn1 | BT-549 breast cancer cells | SRB | 10 µM, 48 h | – | growth percent | 58.5% |
| FC(F)(F)c1ccnc(-c2cc(C(F)(F)F)ccn2)c1.FC(F)(F)c1ccnc(-c2cc(C(F)(F)F)ccn2)c1.[Cl-].[Cl-].[Ru+2].c1csc(-c2ccc(-c3ccc(-c4nc5c6cccnc6c6ncccc6c5[nH]4)s3)s2)c1 | SK-MEL-28 | cell viability | 100 J/cm2 light, normoxia, added: visible light 400-700 nm | reference: dark over light EC50 | phototherapeutic index | 920 |
| Nc1cccc(S(=O)(=O)N2CCCN(S(=O)(=O)c3ccc4c(c3)OCCO4)CC2)c1 | H1299 | – | concentration not given | – | glutamine consumption | no effect |
| CC(C)=CCC1=C([O-])C(=O)c2ccccc2C1=O.CC(C)=CCC1=C([O-])C(=O)c2ccccc2C1=O.O.O.[Zn+2].c1cnc2c(c1)ccc1cccnc12 | A2780 | ICP-MS | concentration not given, 2 to 24 h | reference: untreated cells | intracellular zinc level | ≤ 10 fold |
| CCCCCCCCN(CCC(=O)Nc1ccccc1)C(=O)c1cccn1C | progeroid mouse fibroblasts | immunoblot, item: phospho-histone H2AX | 2 µM, 14 d | – | phospho-H2AX level | decreased |
| COc1cc(CNC(=O)C[C@H](C)CCC=C(C)C)ccc1OCc1cn(-c2ccc([N+](=O)[O-])cc2)nn1 | SNB-19 CNS cancer cells | SRB | 10 µM, 48 h | – | growth percent | 84.8% |
| Cc1noc(NS(=O)(=O)c2ccc(NC(=O)c3ccnc(-c4cccc(Br)c4)c3)cc2)c1C | mouse spleen cells | cell proliferation, MTT | 1 µM, 72 h, added: concanavalin A 5 µg/mL | – | inhibition | 15.3 ± 7.81% |
| O=C(O)c1ccc(/C=C2\SC(=S)N(Cc3cccc(C(F)(F)F)c3)C2=O)cc1 | mouse BMDM | – | concentration not given, added: LPS | – | TNF-α, pro-IL-1β, NLRP3 expression | no effect |
| CCN(CC)CC(=O)Nc1cccc(-n2cc(-c3ccc4ccc(-c5cn(-c6cccc(NC(=O)CN(CC)CC)c6)nn5)cc4c3)nn2)c1 | RCC4 | Western blot | 5 × IC50, 2 h, hypoxia | reference: untreated | HIF-1α protein level | 50% |
| COc1ccc([C@@H]2CC(=O)c3c(O)cc(O[C@@H]4O[C@H](CO[C@@H]5O[C@@H](C)[C@H](O)[C@@H](O)[C@H]5O)[C@@H](O)[C@H](O)[C@H]4O)cc3O2)cc1O | A549 | cell migration, scratch | 50 µg/mL, 48 h | – | gap closure | 8.81 ± 2.52% |
| COc1ccc(CC2COC(=O)C2Cc2ccc3c(c2)OCO3)cc1OC (mixture of isomers) | A2780 | annexin V/7-AAD | 8.75 µM, 72 h | reference: untreated | live cells | decreased |
| O=C(CSc1cccc[n+]1[O-])c1ccccc1Br | LDR | silenced GFP reporter derepression, microscopy | overnight | reference: sodium butyrate | Emax | 127% |

For quick reference, copied from above:
| SMILES | cell line | assay | setting | how to read | measurement | result |
| --- | --- | --- | --- | --- | --- | --- |
| CCN(CC)CC(=O)Nc1cccc(-n2cc(-c3ccc4ccc(-c5cn(-c6cccc(NC(=O)CN(CC)CC)c6)nn5)cc4c3)nn2)c1 | RCC4 | Western blot | 5 × IC50, 2 h, hypoxia | reference: untreated | HIF-1α protein level | 50% |
| COc1cc(CNC(=O)C[C@H](C)CCC=C(C)C)ccc1OCc1cn(-c2ccc(Cl)c(Cl)c2)nn1 | SNB-19 CNS cancer cells | SRB | 10 µM, 48 h | – | growth percent | 81.3% |
| COc1cccc(CNc2nc(NCc3ccccc3)c3ccccc3n2)c1 | SW-403 | cell growth or viability | 24 h | – | GI50 | 4.7 µM |
